Assay results of several laboratories.
Protocols differ between the studies behind these lines. ± marks the error that the study gave.

| Structure (SMILES) | assay | test system | conditions | CL/F |
| --- | --- | --- | --- | --- |
| CC1(C)CC[C@]2(NC(=O)C(C)(F)F)CC[C@]3(C)[C@H](C(=O)C=C4[C@@]5(C)C=C(C#N)C(=O)C(C)(C)[C@@H]5CC[C@]43C)[C@@H]2C1 | – | human | 150 mg single dose, mean, alone | 115 L/h |
| CN1C(=O)[C@@H](NC(=O)c2nnc(Cc3ccccc3)[nH]2)COc2cccnc21 | – | healthy human, fasted, plasma | oral, 30 mg single dose, geometric mean | 5.39 L/h |
| Cn1c(=O)oc2ccc(-c3ccc(C[C@@H](C#N)NC(=O)[C@@H]4CNCCCO4)cc3)cc21 | – | human, severe renal impairment, plasma | oral, 25 mg single dose, mean | 9.97 L/h |
| CC1(COc2ccc3c(c2)ncn3-c2ccc3cccc(N4CCC(N)CC4)c3n2)COC1 | – | human patients, recurrent/progressive HGG or DIPG, serum | oral, 170 mg/m^2, day 1, median | 38.9 L/h/m² |
| C#C[C@]1(CO)O[C@@H](n2cnc3c(N)nc(F)nc32)C[C@@H]1O | – | human, plasma | oral, 15 mg, single dose, geometric mean | 32.5 L/h |
| CCn1cc(C(=O)N2CCOCC2)c(=O)c2cc(NC3Cc4ccccc4C3)cnc21 | – | human, plasma | oral, 900 mg BID, day 7, fed, tablet, male | 19.6 L/h |
| CCN1CCN(Cc2ccc(Nc3ncc(F)c(-c4cc(F)c5nc(C)n(C(C)C)c5c4)n3)nc2)CC1 | – | fasted healthy human subjects | oral, 200 mg, capsule | 54.4 L/h |
| Cc1ncnc2c1ccn2[C@@H]1C[C@H](Oc2cc(C(F)F)c(F)c3c2CNCC3)[C@@H](O)[C@H]1O | – | human | oral, 0.5 mg twice daily | 11 L/h |
| Cn1cc(-c2cn3nccc3c(-c3cnn([C@]4(CC#N)C[C@@H](C#N)C4)c3)n2)cn1 | – | healthy human fasted | 1600 mg single dose | 135 L/h |
| COC(=O)N[C@@H](C)CNc1nccc(-c2cn(C(C)C)nc2-c2cc(Cl)cc(NS(C)(=O)=O)c2F)n1 | – | human, plasma | oral, 50 mg, alone, diltiazem study | 29 L/h |
| C[C@@H](Oc1ccc(S(C)(=O)=O)cc1C(=O)N1C[C@@H]2C[C@]2(c2cc(C(F)(F)F)on2)C1)C(F)(F)F | LC-MS/MS | young human subjects, plasma | oral, 75 mg twice daily, steady state, multiple doses | 7.8 L/h |
| C[C@H](O)c1cc(C(=O)N[C@@H](C)Cn2ccc(-c3ccc(C#N)c(Cl)c3)n2)n[nH]1 | – | human, fasted, plasma | oral solution, 300 mg 14C-darolutamide, geometric mean | 3.94 L/h |
| NC(=S)NN=Cc1ncccc1N | – | human, plasma | oral, 150 mg | 145 L/h |
| C#Cc1cccc(Nc2ncnc3cc(OCCOC)c(OCCOC)cc23)c1 | – | human | oral, 100 mg, day 1 | 8.1 ± 3.89 L/h |
| Cn1cncc1[C@@](N)(c1ccc(Cl)cc1)c1ccc2c(c1)c(-c1cccc(Cl)c1)cc(=O)n2C | – | human patients | oral, 300 mg/m2, first dose, range | 148 to 2700 mL/min/m2 |
| Cn1nnc2c(C(N)=O)ncn2c1=O | – | human patients, plasma | oral, 40 mg/m2, day 5, dose level DL5, median, added: talazoparib 600 µg/m2 | 6.5 L/h/m2 |

A few entries again:
| Structure (SMILES) | assay | test system | conditions | CL/F |
| --- | --- | --- | --- | --- |
| Cn1c(=O)oc2ccc(-c3ccc(C[C@@H](C#N)NC(=O)[C@@H]4CNCCCO4)cc3)cc21 | – | human, severe renal impairment, plasma | oral, 25 mg single dose, mean | 9.97 L/h |
